Results collected from several papers.
Lines come from different studies, so protocols differ. ± gives the spread as reported.
UniProt Q8NFN8, sequence (whole entry, looked up): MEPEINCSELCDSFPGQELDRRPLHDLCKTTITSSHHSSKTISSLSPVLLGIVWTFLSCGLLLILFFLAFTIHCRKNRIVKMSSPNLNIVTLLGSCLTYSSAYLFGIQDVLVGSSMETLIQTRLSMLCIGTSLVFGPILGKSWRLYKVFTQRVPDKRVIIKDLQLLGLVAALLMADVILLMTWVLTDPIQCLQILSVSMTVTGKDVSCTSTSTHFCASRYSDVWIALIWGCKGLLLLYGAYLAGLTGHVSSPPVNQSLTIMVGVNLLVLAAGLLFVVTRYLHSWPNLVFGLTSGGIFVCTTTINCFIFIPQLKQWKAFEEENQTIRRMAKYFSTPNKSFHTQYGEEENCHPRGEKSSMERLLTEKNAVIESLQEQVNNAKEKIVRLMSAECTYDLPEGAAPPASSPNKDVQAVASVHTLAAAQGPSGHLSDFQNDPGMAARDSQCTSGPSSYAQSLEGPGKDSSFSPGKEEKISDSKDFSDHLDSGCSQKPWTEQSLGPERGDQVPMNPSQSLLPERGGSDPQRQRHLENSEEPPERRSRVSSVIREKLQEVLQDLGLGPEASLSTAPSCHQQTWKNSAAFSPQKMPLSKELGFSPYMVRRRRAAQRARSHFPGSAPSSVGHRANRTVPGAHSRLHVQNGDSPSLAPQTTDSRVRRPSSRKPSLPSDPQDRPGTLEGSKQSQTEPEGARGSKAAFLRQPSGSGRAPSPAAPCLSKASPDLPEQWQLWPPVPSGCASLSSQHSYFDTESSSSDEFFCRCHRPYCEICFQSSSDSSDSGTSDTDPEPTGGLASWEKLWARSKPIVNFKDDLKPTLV
UniProt P16050, sequence (whole entry, looked up): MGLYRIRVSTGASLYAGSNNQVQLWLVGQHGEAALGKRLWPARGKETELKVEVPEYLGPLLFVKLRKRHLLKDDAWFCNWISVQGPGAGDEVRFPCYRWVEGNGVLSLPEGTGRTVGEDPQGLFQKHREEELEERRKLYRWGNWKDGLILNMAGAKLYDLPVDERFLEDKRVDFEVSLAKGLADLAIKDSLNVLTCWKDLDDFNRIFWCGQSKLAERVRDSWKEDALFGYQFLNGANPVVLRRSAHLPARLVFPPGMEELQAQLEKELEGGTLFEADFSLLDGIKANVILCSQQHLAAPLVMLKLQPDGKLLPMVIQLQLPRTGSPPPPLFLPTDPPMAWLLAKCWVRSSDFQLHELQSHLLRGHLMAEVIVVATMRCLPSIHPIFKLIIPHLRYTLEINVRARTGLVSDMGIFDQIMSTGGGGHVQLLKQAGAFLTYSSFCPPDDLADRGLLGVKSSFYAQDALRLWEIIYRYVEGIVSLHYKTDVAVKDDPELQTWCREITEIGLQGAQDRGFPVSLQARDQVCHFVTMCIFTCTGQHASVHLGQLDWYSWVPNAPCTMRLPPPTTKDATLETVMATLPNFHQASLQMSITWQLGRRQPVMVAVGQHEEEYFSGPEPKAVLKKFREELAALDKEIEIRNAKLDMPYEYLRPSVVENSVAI
UniProt Q8IVT5, sequence (whole entry, looked up): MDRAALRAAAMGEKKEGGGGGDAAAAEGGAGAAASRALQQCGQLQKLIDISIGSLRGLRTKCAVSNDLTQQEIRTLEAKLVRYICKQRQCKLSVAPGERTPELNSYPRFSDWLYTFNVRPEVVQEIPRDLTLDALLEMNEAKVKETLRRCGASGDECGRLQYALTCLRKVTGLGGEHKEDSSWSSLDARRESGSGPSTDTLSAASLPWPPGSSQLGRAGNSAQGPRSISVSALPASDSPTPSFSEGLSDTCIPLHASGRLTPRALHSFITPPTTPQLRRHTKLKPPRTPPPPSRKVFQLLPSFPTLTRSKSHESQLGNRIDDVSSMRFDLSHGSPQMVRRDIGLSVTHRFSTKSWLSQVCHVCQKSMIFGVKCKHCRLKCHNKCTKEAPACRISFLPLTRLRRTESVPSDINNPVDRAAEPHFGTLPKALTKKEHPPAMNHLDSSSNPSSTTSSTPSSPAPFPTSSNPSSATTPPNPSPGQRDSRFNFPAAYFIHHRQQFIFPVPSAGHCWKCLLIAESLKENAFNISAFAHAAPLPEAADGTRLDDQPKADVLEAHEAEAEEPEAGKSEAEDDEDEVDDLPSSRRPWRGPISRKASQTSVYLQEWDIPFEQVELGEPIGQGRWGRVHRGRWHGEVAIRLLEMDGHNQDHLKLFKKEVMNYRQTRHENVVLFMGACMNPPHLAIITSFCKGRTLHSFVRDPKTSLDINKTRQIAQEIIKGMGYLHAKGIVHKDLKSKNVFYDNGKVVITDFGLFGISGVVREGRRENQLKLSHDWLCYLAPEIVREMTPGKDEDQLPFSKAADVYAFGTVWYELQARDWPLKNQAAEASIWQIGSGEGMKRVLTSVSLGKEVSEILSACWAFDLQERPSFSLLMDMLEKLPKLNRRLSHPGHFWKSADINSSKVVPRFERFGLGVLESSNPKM

Compound	target or system	test	test system	setting	how to read	measurement	result
Cc1ccc(C(=O)N[C@H]2CC[C@@]3(O)[C@H]4Cc5ccc(O)c6c5[C@@]3(CCN4CC3CC3)[C@H]2O6)s1.Cl		antagonist	morphine-pelleted Swiss Webster mice	subcutaneous, 20 mg/kg	relative to: naloxone 1 mg/kg	withdrawal jumps	increased
O=C(O)CCC(CP(=O)(O)O)C(=O)O (stereo not drawn)			rat Wistar male, plasma	intraperitoneal, 100 mg/kg		Vd/F	0.44 L/kg
Cc1ncc2n1-c1ccc(Cl)cc1C(c1ccccc1F)=NC2			human liver microsomes 0.5 mg/mL	5 µM, 24 h		fu,mic	0.735
CN1CC[C@@H](c2c(O)cc(O)c3c(=O)cc(-c4ccc(C(F)(F)F)cc4Cl)oc23)[C@@H]1CO		measured: Neutropenia	B-cell malignancies	oral, 150 mg, intermittent dosing		patients with adverse event	0%
Cc1onc(-c2c(F)cccc2Cl)c1C(=O)N[C@@H]1C(=O)N2[C@@H]1SC(C)(C)[C@@H]2C(=O)O		LC-MS/MS	human patients, plasma	dose not given, therapeutic drug monitoring, median		total plasma concentration	12 mg/L
COc1cc(Nc2ncc(F)c(Nc3ccc4c(n3)NC(=O)C(C)(C)O4)n2)cc(OC)c1OC	Polyunsaturated fatty acid lipoxygenase ALOX15 (ALOX15, Homo sapiens, UniProt P16050)					IC50	> 10 µM
O=C(O)c1cn(Cc2cccc(Cl)c2)c2ccccc12			F344 rat, male, serum	oral, 150 mg/kg/day, 2 days	relative to: vehicle	serum ALT, AST, ALP, GGT	no effect
O=C(O)c1cn(Cc2ccc(F)cc2)c2ccccc12		glucuronidation	human liver microsomes	60 min, 37 °C, added: UDPGA		Km	141 ± 39 µM
CC[C@H](C)[C@H](NC(=O)[C@H](Cc1ccccc1)NC(=O)[C@H](CCC(=O)O)NC(=O)[C@H](CCCNC(=N)N)NC(=O)[C@H](C)NC(=O)[C@H](C)NC(=O)[C@H](CCC(N)=O)NC(=O)[C@H](CCC(=O)O)NC(=O)[C@H](CCC(=O)O)NC(=O)[C@H](CC(C)C)NC(=O)[C@H](Cc1ccc(O)cc1)NC(=O)[C@H](CO)NC(=O)[C@H](CO)NC(=O)[C@@H](NC(=O)[C@H](CC(=O)O)NC(=O)[C@H](CO)NC(=O)[C@@H](NC(=O)[C@H](Cc1ccccc1)NC(=O)[C@@H](NC(=O)CNC(=O)[C@H](CCC(=O)O)NC(=O)[C@H](C)NC(=O)CCc1c[nH]cn1)[C@@H](C)O)[C@@H](C)O)C(C)C)C(=O)N[C@@H](C)C(=O)N[C@@H](Cc1c[nH]c2ccccc12)C(=O)N[C@@H](CC(C)C)C(=O)N[C@H](C(=O)N[C@@H](CCCNC(=N)N)C(=O)NCC(=O)N[C@@H](CCCNC(=N)N)C(=O)N[C@@H](CCCCNC(=O)COCCOCCNC(=O)COCCOCCNC(=O)CC[C@H](NC(=O)CCCCCCCCCCCCCCCCC(=O)O)C(=O)O)C(=O)NCC(=O)NCC(=O)N[C@@H](CO)C(=O)N[C@@H](CCCCNc1c(NCCCCCN(O)C(=O)CCC(=O)NCCCCCN(O)C(=O)CCC(=O)NCCCCCN(O)C(C)=O)c(=O)c1=O)C(=O)O)C(C)C [zirconium-89 labelled]			rat, knee	intravenous, 3 nmol/kg, 72 h		tissue uptake	0.22 %ID/g
C=C1C[C@@H]2[C@H](CC[C@]3(C)C(=O)CC[C@@H]23)[C@@]2(C)C=CC(=O)C=C12		glutathione conjugate formation, substrate	pooled human liver cytosol	1 h, 37 °C, added: GSH 5 mM		Km	46 ± 12 µM
O=C(O)C[C@H](NC(=O)[C@H](CC(=O)O)NC(=O)[C@H](CC(=O)O)NC(=O)[C@H](CC(=O)O)NC(=O)[C@H](CC(=O)O)NC(=O)[C@H](CC(=O)O)NC(=O)[C@H](CC(=O)O)NC(=O)[C@H](CC(=O)O)NC(=O)[C@H](CC(=O)O)NC(=O)[C@H](CC(=O)O)NC(=O)[C@H](CC(=O)O)NC(=O)[C@H](CCCCNC(=O)c1ccc(C(=O)NCCOCCOB2BBBBBB3BBBB3B2)cc1)NC(=O)CN1CCN(CC(=O)O)CCN(CC(=O)O)CCN(CC(=O)O)CC1)C(=O)O [gallium-67 labelled]		gamma counting	mouse, ddY, male, 6 weeks old, stomach	intravenous, 37 kBq, 3 h		tissue uptake	0.07 %ID
C[C@@H](O)[C@@H](CO)NC(=O)[C@@H](CCCNC(=N)N)NC(=O)[C@@H]1CCCN1C(=O)[C@@H]1CSSC[C@H](NC(=O)[C@H](Cc2ccccc2)NC(=O)CN2CCN(CC(=O)O)CCN(CC(=O)O)CCN(CC(=O)O)CC2)C(=O)N[C@@H](Cc2ccc(O)cc2)C(=O)N[C@@H](Cc2ccccc2)C(=O)N[C@@H](CCC(N)=O)C(=O)N[C@@H](CC(N)=O)C(=O)N1 [gallium-68 labelled]			Wistar rat, pancreas	intravenous, 8 MBq, 120 min, group mean		tissue uptake	0.02 %ID/g
C#Cc1ccc2c(c1)C(c1ccccn1)=NCc1c(-c3cnco3)ncn1-2.Cl		shake flask	50 mM phosphate buffer	24 h, pH 9, 25 °C		solubility	959 µg/mL
CCN(CC)C(=O)[C@@H]1C=C2c3cccc4[nH]cc(c34)C[C@H]2N(C)C1		measured: not feeling at ease	healthy volunteers	dose not given, 0 to 12 h	relative to: placebo, direction not given	List of Complaints score	1
Cc1onc(-c2c(F)cccc2Cl)c1C(=O)N[C@@H]1C(=O)N2[C@@H]1SC(C)(C)[C@@H]2C(=O)O			human whole blood	concentration not given, 48 h, 4 °C		deviation from nominal concentration	-2.3%
Cc1cc(C(=O)NC(C)(C)COc2cccc3c2C(N)=NS(=O)(=O)N3)cc(C)n1	Salmonella typhimurium	Ames test, confirmatory	TA1537	333 µg/plate	relative to: solvent control	revertant ratio	1.2
C[C@H]1CN(c2n[nH]c3nc(N[C@H]4CC[C@H](NS(=O)(=O)CCC(F)(F)F)CC4)ncc23)CCO1	Kinase suppressor of Ras 1 (KSR1, Homo sapiens, UniProt Q8IVT5)	inhibitor, Kinobeads competition profiling		20 µM	relative to: vehicle	relative abundance	1.24
Cc1ncc2n1-c1ccc(Cl)cc1C(c1ccccc1F)=NC2			wild-type mice, plasma	intravenous, 0.3 mg/kg, added: 3-day PCN 10 mg/kg		AUC(0-90 min)	0.0368 ± 0.00198 µM·h
O=C(O)CNC(=O)C1C(=O)N(C2CCCCC2)C(=O)N(C2CCCCC2)C1=O						pKa (acidic)	3.3
Cc1ncc2n1-c1ccc(Cl)cc1C(c1ccccc1F)=NC2			human	oral, pH 7.7		oral bioavailability	47%
COc1cc2c(Oc3ccc4[nH]c(C)cc4c3F)ccnc2cc1OCC1(N)CC1		measured: grade 3 influenza-like symptoms	paediatric high-risk refractory sarcoma	whole group		incidence of adverse event	0%
OCc1ncc2n1-c1ccc(Cl)cc1C(c1ccccc1F)=NC2			human, plasma	7.5 mg midazolam, day 12, arithmetic mean, added: amenamevir 400 mg		half-life	3.3 h
CCCCCCCCCCC(=O)O[C@H]1CC[C@H]2[C@@H]3CCC4=CC(=O)CC[C@]4(C)[C@H]3CC[C@]12C			human male serum	500 ng/mL, NaF 200 mg/mL, baseline testosterone 441 ng/dL		testosterone level	447 ng/dL
COc1cccc(-c2n[nH]c(SCc3ccccn3)n2)c1OC	Salmonella typhimurium	Ames test, preincubation	TA100	1.0 mg/plate, with rat liver S9		revertant colonies per plate	130
Cc1ncc2n1-c1ccc(Cl)cc1C(c1ccccc1F)=NC2			healthy subjects	oral, 2 mg, 1 day, single dose, DDI study part		participants with adverse events	41.7%
CO[C@H]1C[C@@H]2CC[C@@H](C)[C@@](O)(O2)C(=O)C(=O)N2CCCC[C@H]2C(=O)O[C@H]([C@H](C)C[C@@H]2CC[C@@H](OC(=O)NCCOCCOCCOCCOCCOCCOCCOCCOCCC(=O)N3CCc4cc(Cn5nc(-c6ccc7oc(N)nc7c6)c6c(N)ncnc65)ccc4C3)[C@H](OC)C2)C[C@@H](O)[C@H](C)/C=C(\C)[C@@H](O)[C@@H](OC)C(=O)[C@H](C)C[C@H](C)/C=C/C=C/C=C/1C		phase 1 dose escalation, measured: decreased appetite	advanced solid tumour patients	intravenous, 6 mg weekly, grade ≥3		TRAE incidence	0%
Oc1ccc2c3c1O[C@H]1[C@@H](O)CC[C@@]4(O)[C@@H](C2)N(CC2CCC2)CC[C@]314	Probable G-protein coupled receptor 156 (GPR156, Homo sapiens, UniProt Q8NFN8)	β-arrestin recruitment, TANGO luminescence, measured: GPR156		concentration not given	relative to: basal luminescence	log2 fold change	-0.031
C=C1C[C@H]2[C@@H]3CC[C@H](O[C@@H]4O[C@H](C(=O)O)[C@@H](O)[C@H](O)[C@H]4O)[C@@]3(C)CC[C@@H]2[C@@]2(C)C=CC(=O)C=C12			postmenopausal women, serum	UGT2B17 and GSTA1 genotypes		share of total exemestane metabolites	44%
O=C1c2c(O)c(=O)ccn2N([C@@H]2c3ccccc3SCc3c2ccc(F)c3F)[C@@H]2COCCN12			BALB/c mice, plasma	oral, 1.5 mg/kg baloxavir marboxil, 1 h		plasma concentration	14.3 ng/mL
CN1CC[C@]23c4c5ccc(O)c4O[C@H]2[C@@H](O)C=C[C@@]3(O)[C@H]1C5				1 h		logP	0.78

Some of these lines once more:
Compound	target or system	test	test system	setting	how to read	measurement	result
COc1cccc(-c2n[nH]c(SCc3ccccn3)n2)c1OC	Salmonella typhimurium	Ames test, preincubation	TA100	1.0 mg/plate, with rat liver S9		revertant colonies per plate	130
Oc1ccc2c3c1O[C@H]1[C@@H](O)CC[C@@]4(O)[C@@H](C2)N(CC2CCC2)CC[C@]314	Probable G-protein coupled receptor 156 (GPR156, Homo sapiens, UniProt Q8NFN8)	β-arrestin recruitment, TANGO luminescence, measured: GPR156		concentration not given	relative to: basal luminescence	log2 fold change	-0.031
COc1cc2c(Oc3ccc4[nH]c(C)cc4c3F)ccnc2cc1OCC1(N)CC1		measured: grade 3 influenza-like symptoms	paediatric high-risk refractory sarcoma	whole group		incidence of adverse event	0%
Cc1cc(C(=O)NC(C)(C)COc2cccc3c2C(N)=NS(=O)(=O)N3)cc(C)n1	Salmonella typhimurium	Ames test, confirmatory	TA1537	333 µg/plate	relative to: solvent control	revertant ratio	1.2
